Measurements of several laboratories.
Compare with care: the assays were run in different laboratories. ± gives the spread as reported.
Cell line: MCF7

Compound | effect on | technique | time | IC50
O=C(CCCCCCC(=O)Nc1ccccc1-[c-]1cccc1)NO.[Fe+2].c1cc[cH-]c1 | cell growth or viability | – | – | 1.9 µM
CCCCn1cc(C(=O)O)c(=O)c2cc(F)c(N)c([N+](=O)[O-])c21 | cell growth or viability | SRB | – | 390 µM
COc1ccc(NC(=O)N/N=C2\CC3(CCN(C)CC3)Oc3ccccc32)cc1 | cell growth | MTT | 48 h | 6.67 ± 0.28 µM
CC1=[N+]2N=C(c3ccccc3)[O][Pd-2]2([Cl])[O+]=C2Oc3ccccc3C=C21 (stereo not drawn) | cytotoxicity | MTT | 24 h | 19.5 ± 1.5 µM
CCCCn1cc(C(=O)O)c(=O)c2cc(F)c(Nc3ccccc3OC)c([N+](=O)[O-])c21 | cell growth or viability | SRB | – | 70.9 µM
CCCCn1cc(C(=O)O)c(=O)c2cc(F)c3[nH]nnc3c21 | cell growth | SRB | 72 h | 77 ± 11.8 µg/mL
O=C(CCCCCCC(=O)Nc1ccc(-[c-]2cccc2)cc1)NO.[Fe+2].c1cc[cH-]c1 | cell growth or viability | – | – | 3.13 µM
CCCCn1cc(C(=O)O)c(=O)c2cc(F)c(Nc3cccc(OC)c3)c([N+](=O)[O-])c21 | cell growth | SRB | 72 h | 52.8 ± 3.35 µg/mL
CN1CCC2(CC1)C/C(=N\NC(=O)Nc1ccccc1)c1ccccc1O2 | cell growth | MTT | 48 h | 1.67 ± 0.07 µM

Some of these lines once more:
Compound | effect on | technique | time | IC50
CCCCn1cc(C(=O)O)c(=O)c2cc(F)c(Nc3cccc(OC)c3)c([N+](=O)[O-])c21 | cell growth | SRB | 72 h | 52.8 ± 3.35 µg/mL
